Results from different studies.
Every numbered part comes from another study and shows a few of its results, in no order.

Sample 1 — method: protein-binding microarray; molecule type: double-stranded DNA, one strand shown; medium: in vitro; tested at: 2200 nM top; setting: 60-bp whole probe; together with: salmon DNA 0.4 mg/ml; relative to: random background probes; reading: higher = stronger binding; shared flanks, not repeated: GCCTAGCAC … GTCTTGATTCGCTTGACGCTGCTG
Target: Interferon regulatory factor 7, full length, phosphomimetic (IRF7, Homo sapiens, UniProt Q92985, residues 1-503, S471D/S472D/S475D/S476D/S477D/S483D/S484D/S487D)
Construct (chain): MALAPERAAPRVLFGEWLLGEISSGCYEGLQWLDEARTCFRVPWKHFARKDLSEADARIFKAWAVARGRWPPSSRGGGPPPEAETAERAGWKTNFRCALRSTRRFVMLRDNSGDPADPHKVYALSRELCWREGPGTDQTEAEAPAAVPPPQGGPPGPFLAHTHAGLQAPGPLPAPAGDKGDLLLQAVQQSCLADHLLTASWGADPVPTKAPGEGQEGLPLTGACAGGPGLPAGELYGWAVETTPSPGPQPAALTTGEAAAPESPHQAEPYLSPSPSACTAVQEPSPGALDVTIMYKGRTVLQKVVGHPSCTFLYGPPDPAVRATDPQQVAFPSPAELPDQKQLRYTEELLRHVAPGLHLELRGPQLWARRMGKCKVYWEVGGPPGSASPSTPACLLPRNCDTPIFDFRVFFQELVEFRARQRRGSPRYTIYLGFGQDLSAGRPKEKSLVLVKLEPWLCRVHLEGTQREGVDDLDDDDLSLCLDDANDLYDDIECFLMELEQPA
Under “fitted relative affinity”, `GACGAACTGGGGTAGCGAGACGTGCTA` is recorded as -0.221 z-score.
Under “fitted relative affinity”, `TCATGATTGGTTGAACAACTGTGCTAG` is recorded as 0.307 z-score.
For `GACGGTATCGACACTGGGGCCGTGCTA`, “fitted relative affinity” read -0.591 z-score.
For `GTTGTACTTTCTATCTCTGTGTGCTAG`, “fitted relative affinity” read 4.82 z-score.
For `TCATCTCCAGGGTTTCTCACTGTGCTA`, “fitted relative affinity” read 1.03 z-score.

Sample 2 — method: protein binding microarray; molecule type: double-stranded DNA, one strand shown; medium: in vitro; tested at: not given; relative to: not given; reading: higher = stronger binding
Target: Histone acetyltransferase KAT6A, winged helix 2, GST fusion (KAT6A, Homo sapiens, UniProt Q92794, residues 85-181)
Setting: 8-mer, flanks averaged, mean of 2 arrays, mostly near background
Residues (chain): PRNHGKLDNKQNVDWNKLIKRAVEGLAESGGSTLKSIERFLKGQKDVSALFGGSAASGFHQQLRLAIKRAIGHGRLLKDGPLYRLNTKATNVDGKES
`CTCGAACC` gave an E-score of 0.0496.
For `AAGTGCAC`, the E-score was -0.0284.
`AACCCGCG` gave an E-score of 0.121.
`GTCACACA` has an E-score of -0.0657.
For `ATCTCAGA`, the E-score was 0.0273.

Sample 3 — method: competition protein-binding microarray; molecule type: double-stranded DNA, one strand shown; medium: in vitro; tested at: 2 µM; together with: Cbf1 competitor, 0.05 µM; reading: higher = stronger binding
Target: Phosphate system positive regulatory protein PHO4, full length, GST-tagged (PHO4, Saccharomyces cerevisiae, UniProt P07270, residues 1-312)
Setting: whole 60-bp probe, lowest competitor level
Target sequence (chain): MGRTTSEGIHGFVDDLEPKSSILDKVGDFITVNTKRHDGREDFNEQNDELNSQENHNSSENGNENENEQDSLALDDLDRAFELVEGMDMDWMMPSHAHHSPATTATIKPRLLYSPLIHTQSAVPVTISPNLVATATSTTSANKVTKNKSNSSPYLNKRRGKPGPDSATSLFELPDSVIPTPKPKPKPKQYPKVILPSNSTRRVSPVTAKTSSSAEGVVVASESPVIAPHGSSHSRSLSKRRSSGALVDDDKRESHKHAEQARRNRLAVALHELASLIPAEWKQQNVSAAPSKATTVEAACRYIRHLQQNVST
`GAGATCCAGATGTCGCACGTGACCTAAGTGAGACTGGTCTTGATTCGCTTGACGCTGCTG` gave a fluorescence intensity of 15200 a.u.
`AAATTACTAAGTTGATATGTGGGTGACGCCGTATGAGTCTTGATTCGCTTGACGCTGCTG` gave a fluorescence intensity of 4010 a.u.
With `GAAACAGCTGCTACCCACGATGTAGTGTTTGAAACAGTCTTGATTCGCTTGACGCTGCTG` the fluorescence intensity was 9460 a.u.
The fluorescence intensity of `CGTCCTAGTGATTGGGCGGTGGGTGCCATGAGGAAGGTCTTGATTCGCTTGACGCTGCTG` is reported as 6470 a.u.

Further values, each from its own experiment
With `PhoQ, residues 284 288 289 292 302 303 ASSHFY` the fold induction was 15.8 (PhoP, residues 12 14 15 18 19 SFCSL (Escherichia coli, UniProt P23836); Sort-seq, refers to: YFP reporter; E. coli; PhoQ-PhoP variant library, together with: 10 µM Mg2+; relative to: high Mg2+ state, higher = stronger signaling).

Repeated from above (sample 2):
For `AAGTGCAC`, the E-score was -0.0284.
`AACCCGCG` gave an E-score of 0.121.
